Measurements collected from several papers.
Lines come from different studies, so protocols differ. Numbers after ± are the reported error.

CC[C@H](C)[C@H](NC(=O)[C@H](CCCCN)NC(=O)[C@@H](NC(=O)[C@H](CS)NC(=O)[C@H](CCCNC(=N)N)NC(=O)[C@H](CCCNC(=N)N)NC(=O)[C@H](CC(N)=O)NC(=O)[C@H](CCCNC(=N)N)NC(=O)[C@H](CS)NC(=O)[C@@H](NC(=O)[C@H](CO)NC(=O)[C@@H](NC(=O)[C@H](CS)NC(=O)[C@H](CCCCN)NC(=O)[C@@H](N)CCCNC(=N)N)[C@@H](C)CC)C(C)C)[C@@H](C)CC)C(=O)N[C@@H](CS)C(=O)N[C@@H](CCCNC(=N)N)C(=O)O — two-disulfide form (LC/MS; PBS; 0.1 mg/mL; baseline: LC peak area): 37%
CCC1CCc2c(sc3nc(SCCCN4CCCCC4)nc(N)c23)C1 (racemic) — metabolized compound (mouse liver microsomes; 30 min): 52%
Cc1ccc2nc(C)c(C(=O)NCc3ccc(C(F)(F)F)cc3)n2c1 — CLint (marmoset liver microsomes): 141 mL/min/g protein
Nc1nc(SCCCN2CCCCC2)nc2sc3c(c12)CCC(c1ccccc1)C3 (stereo not drawn) — metabolized compound (mouse liver microsomes; 30 min): 47 ± 25%
CN[C@](C)(C[18F])C(=O)O — tracer uptake (MDA-MB-468 tumour model; host not given, heart; 2 h, tumour-bearing): 2.8 %ID/g
C[C@H](NC(=O)[C@H](CCC(N)=O)NC(=O)[C@H](CCCCN)NC(=O)[C@H](C)NC(=O)[C@@H]1CCCN1C(=O)[C@H](C)NC(=O)[C@H](CCCCN)NC(=O)[C@H](CCC(N)=O)NC(=O)[C@H](C)NC(=O)[C@H](CCCCN)NC(=O)[C@H](CCC(N)=O)NC(=O)[C@@H]1CCCN1C(=O)[C@H](CCC(N)=O)NC(=O)[C@H](CCCCN)NC(=O)[C@H](C)NC(=O)[C@H](CCC(N)=O)NC(=O)[C@H](CCCCN)NC(=O)[C@H](C)NC(=O)[C@@H]1CCCN1C(=O)[C@H](C)NC(=O)[C@H](CCCCN)NC(=O)[C@H](CCC(N)=O)NC(=O)[C@H](C)NC(=O)[C@H](CCCCN)NC(=O)[C@H](CO)NC(=O)[C@H](Cc1ccc(O)cc1)NC(=O)CNC(=O)CNC(=O)CN)C(=O)N[C@@H](CCCCN)C(=O)N[C@@H](CCC(N)=O)C(=O)O — ka1 (binding, SPR two-state model; rVλ6Wil fibrils; 300 nM, pH 7.4): 120000 M⁻¹ s⁻¹
O=C(Cc1cccs1)N[C@@H]1C(=O)N2C(C(=O)O)=C(CSc3cccc[n+]3[O-])CS[C@H]12 — plasma stability (mouse plasma; 37 °C): stable
CN(C)CC1CCCCC1(O)c1cccc(O)c1 (stereo not drawn) — efflux ratio (Caco-2; 10 µM, 3 h, pH 7.4): 1.1
CCN(Cc1ccccc1)C(=O)CCc1nc(CN2CCN(C(=O)Cc3ccc(OC)c(OC)c3)CC2)no1 — current density (KCNQ4 (Homo sapiens, UniProt P56696); potassium current, opener, whole-cell patch clamp; CHO stable; 100 nM, -10 mV): 59.8 ± 3.84 pA/pF
CC(C)(C)C1CCc2c(sc3nc(SCCN4CCCC4)nc(N)c23)C1 (stereo not drawn) — metabolized compound (mouse liver microsomes; 30 min): 53 ± 5%
N=C(N)NCCC[C@@H]1NC(=O)[C@H](CCCCNC(=O)CC[C@H](NC(=O)CCOCCOCCOCCOCCNC(=O)CN2CCN(CC(=O)O)CCN(CC(=O)O)CCN(CC(=O)O)CC2)C(=O)NCCCC[C@@H]2NC(=O)[C@@H](Cc3ccccc3)NC(=O)[C@H](CC(=O)O)NC(=O)CNC(=O)[C@H](CCCNC(=N)N)NC2=O)NC(=O)[C@@H](Cc2ccccc2)NC(=O)[C@H](CC(=O)O)NC(=O)CNC1=O [indium-111 labelled] — log P (octanol/water): -3.22 ± 0.09
Nc1nc2c([C@@H]3O[C@@H]4COP(=O)(O)O[C@H]5[C@@H](O)[C@H](c6snc7c(=O)[nH]c(N)nc67)O[C@@H]5COP(=O)(O)O[C@H]4[C@H]3O)snc2c(=O)[nH]1 — rate constant k1 (dncV (Vibrio cholerae, UniProt Q9KVG7); first phosphodiester formation, substrate, HPLC; 500 µM, 37 °C): 1.26 ± 0.07 M⁻¹ s⁻¹
COc1ccc(-n2cc(C(=O)N3C[C@]4(OC(=O)c5ccccc5NC(C)=O)CC[C@H](OC)[C@@]56[C@@H]4C[C@@H]([C@@H]35)[C@@]3(O)C[C@H](OC)[C@H]4C[C@@H]6[C@]3(O)[C@H]4OC)nn2)cc1 — MRT(0-t) (Sprague-Dawley rat, plasma; intravenous, 2 mg/kg): 19.2 min
O=C1CC(=O)N(c2ccccc2)c2cc(Cl)ccc2N1 — blood concentration (129X1/SvJ mice, whole blood; oral, 100 mg/kg, 2 h): 20.6 µM
CC(c1ccc(Cl)cc1F)N1CCCC(n2c(=O)[nH]c3cc(Cl)c(Cl)cc32)CC1 (stereo not drawn) — concentration (male C57BL/6 mouse, brain; intraperitoneal, 3 mg/kg, 1 h): 0.493 µM
